Experimental data pooled from the literature.
Each numbered part is a random draw from the data of one study; scales do not carry over between parts.
Sequence of UniProt Q5XXA6 (whole entry, unmodified, looked up): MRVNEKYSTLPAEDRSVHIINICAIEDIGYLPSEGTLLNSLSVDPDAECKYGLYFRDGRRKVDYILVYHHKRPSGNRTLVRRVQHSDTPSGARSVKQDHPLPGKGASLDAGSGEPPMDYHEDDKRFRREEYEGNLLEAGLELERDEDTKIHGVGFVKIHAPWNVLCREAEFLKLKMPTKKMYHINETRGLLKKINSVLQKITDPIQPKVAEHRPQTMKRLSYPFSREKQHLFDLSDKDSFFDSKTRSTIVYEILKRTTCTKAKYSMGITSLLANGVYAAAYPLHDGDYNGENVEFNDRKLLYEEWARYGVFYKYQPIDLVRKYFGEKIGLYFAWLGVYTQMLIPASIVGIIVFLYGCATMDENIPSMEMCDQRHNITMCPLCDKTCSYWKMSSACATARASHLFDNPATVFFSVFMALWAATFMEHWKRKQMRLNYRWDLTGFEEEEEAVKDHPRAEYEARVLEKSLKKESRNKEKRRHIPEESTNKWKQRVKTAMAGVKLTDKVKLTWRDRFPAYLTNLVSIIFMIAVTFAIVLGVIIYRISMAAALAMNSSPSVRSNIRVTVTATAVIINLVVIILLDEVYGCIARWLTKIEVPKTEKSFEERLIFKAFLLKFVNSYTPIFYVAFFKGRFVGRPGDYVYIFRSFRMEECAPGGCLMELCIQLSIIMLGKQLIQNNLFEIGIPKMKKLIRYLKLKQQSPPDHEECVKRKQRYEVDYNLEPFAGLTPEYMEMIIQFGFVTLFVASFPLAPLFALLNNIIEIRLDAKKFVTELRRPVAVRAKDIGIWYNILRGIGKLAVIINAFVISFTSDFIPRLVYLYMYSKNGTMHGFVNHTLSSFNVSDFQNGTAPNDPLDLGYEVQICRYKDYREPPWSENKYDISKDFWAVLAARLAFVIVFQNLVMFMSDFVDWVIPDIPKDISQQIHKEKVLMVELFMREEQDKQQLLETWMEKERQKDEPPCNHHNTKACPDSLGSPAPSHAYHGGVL
Sequence of UniProt P20794 (whole entry, looked up): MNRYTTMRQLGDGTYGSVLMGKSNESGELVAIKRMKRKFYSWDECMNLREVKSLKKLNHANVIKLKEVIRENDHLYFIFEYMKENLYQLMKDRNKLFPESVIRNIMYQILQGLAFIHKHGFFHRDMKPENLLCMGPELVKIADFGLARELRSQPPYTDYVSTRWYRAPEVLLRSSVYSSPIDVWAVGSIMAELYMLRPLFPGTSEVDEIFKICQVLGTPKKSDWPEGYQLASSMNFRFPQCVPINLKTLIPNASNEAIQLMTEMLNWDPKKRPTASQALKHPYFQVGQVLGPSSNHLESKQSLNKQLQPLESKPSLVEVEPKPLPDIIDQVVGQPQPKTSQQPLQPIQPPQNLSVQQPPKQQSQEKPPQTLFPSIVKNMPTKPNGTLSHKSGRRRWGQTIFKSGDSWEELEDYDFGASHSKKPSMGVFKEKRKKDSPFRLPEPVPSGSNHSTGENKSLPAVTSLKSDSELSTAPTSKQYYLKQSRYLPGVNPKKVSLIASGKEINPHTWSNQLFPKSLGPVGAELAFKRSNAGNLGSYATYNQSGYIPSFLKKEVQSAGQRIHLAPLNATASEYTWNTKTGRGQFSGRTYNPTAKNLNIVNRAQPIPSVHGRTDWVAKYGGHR
Sequence of UniProt P45983 (whole entry, looked up): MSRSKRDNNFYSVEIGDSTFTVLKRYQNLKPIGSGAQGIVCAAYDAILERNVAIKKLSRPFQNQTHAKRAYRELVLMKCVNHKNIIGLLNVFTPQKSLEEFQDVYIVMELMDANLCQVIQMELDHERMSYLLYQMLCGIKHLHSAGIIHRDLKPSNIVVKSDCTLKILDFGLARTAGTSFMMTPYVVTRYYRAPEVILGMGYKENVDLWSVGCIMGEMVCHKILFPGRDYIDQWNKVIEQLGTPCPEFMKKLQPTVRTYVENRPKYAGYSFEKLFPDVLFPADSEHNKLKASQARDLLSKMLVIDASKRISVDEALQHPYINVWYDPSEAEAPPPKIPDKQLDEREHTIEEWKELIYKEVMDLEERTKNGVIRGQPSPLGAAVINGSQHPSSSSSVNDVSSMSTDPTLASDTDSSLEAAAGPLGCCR
Sequence of UniProt Q92630 (whole entry, looked up): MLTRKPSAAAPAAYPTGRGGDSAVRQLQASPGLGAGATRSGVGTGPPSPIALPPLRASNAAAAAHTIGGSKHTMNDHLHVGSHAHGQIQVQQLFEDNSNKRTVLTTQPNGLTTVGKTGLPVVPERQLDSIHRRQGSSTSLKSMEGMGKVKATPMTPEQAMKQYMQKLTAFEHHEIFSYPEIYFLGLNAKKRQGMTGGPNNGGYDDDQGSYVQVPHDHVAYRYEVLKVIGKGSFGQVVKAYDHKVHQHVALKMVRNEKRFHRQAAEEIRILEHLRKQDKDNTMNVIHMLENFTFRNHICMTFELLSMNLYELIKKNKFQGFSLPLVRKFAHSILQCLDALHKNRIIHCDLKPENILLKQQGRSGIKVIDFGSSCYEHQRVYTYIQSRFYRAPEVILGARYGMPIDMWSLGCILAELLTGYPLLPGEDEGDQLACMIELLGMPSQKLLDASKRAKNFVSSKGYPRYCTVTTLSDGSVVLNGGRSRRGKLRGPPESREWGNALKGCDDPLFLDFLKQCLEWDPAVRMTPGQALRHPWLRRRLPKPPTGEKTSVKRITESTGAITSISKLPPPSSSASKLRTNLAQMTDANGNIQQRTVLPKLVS
Sequence of UniProt P10721 (whole entry, looked up): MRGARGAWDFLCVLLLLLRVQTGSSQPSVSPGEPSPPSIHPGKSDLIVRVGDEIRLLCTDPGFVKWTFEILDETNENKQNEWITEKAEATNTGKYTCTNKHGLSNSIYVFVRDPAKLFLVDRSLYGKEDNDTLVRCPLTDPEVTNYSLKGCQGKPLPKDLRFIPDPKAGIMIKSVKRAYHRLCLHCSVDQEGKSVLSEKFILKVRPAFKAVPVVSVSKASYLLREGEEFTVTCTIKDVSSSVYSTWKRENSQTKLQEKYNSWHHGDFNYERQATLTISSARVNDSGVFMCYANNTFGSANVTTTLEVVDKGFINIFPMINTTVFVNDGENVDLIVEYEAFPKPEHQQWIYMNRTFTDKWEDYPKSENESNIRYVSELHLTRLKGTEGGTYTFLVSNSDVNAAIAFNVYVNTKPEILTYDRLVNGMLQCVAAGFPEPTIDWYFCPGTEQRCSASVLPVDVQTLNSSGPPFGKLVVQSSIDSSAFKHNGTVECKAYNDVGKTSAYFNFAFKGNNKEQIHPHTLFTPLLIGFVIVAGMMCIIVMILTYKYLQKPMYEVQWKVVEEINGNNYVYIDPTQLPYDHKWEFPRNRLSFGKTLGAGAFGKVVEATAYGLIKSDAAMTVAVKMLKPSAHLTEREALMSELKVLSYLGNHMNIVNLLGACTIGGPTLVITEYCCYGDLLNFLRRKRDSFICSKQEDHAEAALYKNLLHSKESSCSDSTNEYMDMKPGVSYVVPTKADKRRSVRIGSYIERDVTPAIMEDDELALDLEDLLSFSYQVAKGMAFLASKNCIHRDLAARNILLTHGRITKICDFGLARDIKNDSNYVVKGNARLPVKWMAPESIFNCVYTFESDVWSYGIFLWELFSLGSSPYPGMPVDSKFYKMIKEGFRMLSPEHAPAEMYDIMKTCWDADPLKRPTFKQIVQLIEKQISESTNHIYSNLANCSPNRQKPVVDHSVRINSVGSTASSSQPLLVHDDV
Sequence of UniProt P42336 (whole entry, unmodified, looked up): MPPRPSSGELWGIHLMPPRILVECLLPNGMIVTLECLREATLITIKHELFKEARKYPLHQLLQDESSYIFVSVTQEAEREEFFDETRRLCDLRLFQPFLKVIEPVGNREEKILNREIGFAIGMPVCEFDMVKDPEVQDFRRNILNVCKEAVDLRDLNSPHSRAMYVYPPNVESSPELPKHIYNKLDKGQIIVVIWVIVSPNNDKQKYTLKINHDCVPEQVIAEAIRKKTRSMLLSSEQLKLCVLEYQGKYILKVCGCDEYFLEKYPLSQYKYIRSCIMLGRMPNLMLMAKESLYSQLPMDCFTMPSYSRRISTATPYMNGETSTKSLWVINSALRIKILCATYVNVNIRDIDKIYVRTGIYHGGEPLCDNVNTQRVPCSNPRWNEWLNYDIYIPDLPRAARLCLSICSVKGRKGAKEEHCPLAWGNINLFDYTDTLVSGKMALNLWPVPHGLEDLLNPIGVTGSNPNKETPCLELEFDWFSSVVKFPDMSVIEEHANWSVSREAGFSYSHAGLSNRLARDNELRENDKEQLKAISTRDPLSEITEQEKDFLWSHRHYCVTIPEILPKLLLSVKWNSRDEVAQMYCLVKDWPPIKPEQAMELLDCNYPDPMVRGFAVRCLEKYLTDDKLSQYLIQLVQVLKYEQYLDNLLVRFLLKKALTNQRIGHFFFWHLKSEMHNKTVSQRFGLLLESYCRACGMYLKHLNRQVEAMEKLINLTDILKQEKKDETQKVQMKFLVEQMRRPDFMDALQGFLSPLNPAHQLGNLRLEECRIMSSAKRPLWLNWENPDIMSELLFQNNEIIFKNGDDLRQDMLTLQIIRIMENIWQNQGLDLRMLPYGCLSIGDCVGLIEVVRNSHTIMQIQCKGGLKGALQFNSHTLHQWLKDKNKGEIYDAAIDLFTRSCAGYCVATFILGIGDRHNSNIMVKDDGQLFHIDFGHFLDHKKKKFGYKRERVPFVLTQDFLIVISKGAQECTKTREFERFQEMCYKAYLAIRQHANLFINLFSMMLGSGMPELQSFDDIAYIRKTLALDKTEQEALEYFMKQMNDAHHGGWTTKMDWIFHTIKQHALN

Study 1
Host: human
Medium: microsomes or S9
Tested at: 2 µM
Time: 0.5 h
`Cc1c(Cl)cccc1-c1ccc(CNCCN(C)C)o1` has a remaining compound of 41.4%.
The remaining compound of `Cc1ccc(CNS(=O)(=O)c2cc(-c3ccc(=O)[nH]n3)cc(C)c2C)cc1` is reported as 0.749%.
For `CCOc1cc(=O)n2c(c1C(=O)NCc1ccc3c(c1)OCO3)CCCC2`, the remaining compound was 76.8%.
`CC1(COc2ccc(Cl)cc2)CC(n2cncn2)C(c2ccc(Cl)cc2)=NO1` (centres unmarked) gave a remaining compound of 73.6%.

Study 2
Cell line: HaCaT
Tested at: 100 µM
Time: 60 h
`CCOc1cc(N)c(Cl)cc1C(=O)NCC1CN(Cc2ccc(F)cc2)CCO1` (centres unmarked) gave a viability of 117%.
The viability of `CCN(CC)CCNC(=O)c1cc(Cl)c(N)cc1OC` is reported as 114%.
`CCOc1ccc(NC(C)=O)cc1` has a viability of 126%.
`Nc1cc(-c2ccncc2)c[nH]c1=O` has a viability of 140%.

Study 3
Compound: C=CCc1ccc(O)c(-c2ccc(O)c(CC=C)c2)c1
Observed: chloride current
Technique: whole-cell voltage clamp
Anoctamin-1 (ANO1, Homo sapiens, UniProt Q5XXA6, del476-501/R631K); inhibitor; R605K mutant at 40 mV — IC50: 7.53 µM.
The IC50 was 5.76 µM (Anoctamin-1 (ANO1, Homo sapiens, UniProt Q5XXA6, del476-501/F627A); membrane voltage -40 mV).
For Anoctamin-1 (ANO1, Homo sapiens, UniProt Q5XXA6, del476-501/L548A); inhibitor; pore pocket mutant L522A at 100 mV, with: 300 nM Ca2+: IC50 read 6.21 µM.
The IC50 was 4.02 µM (Anoctamin-1 (ANO1, Homo sapiens, UniProt Q5XXA6, del476-501); membrane voltage 60 mV, with: 300 nM Ca2+).

Study 4
Organism: Sarcocystis neurona
Observed: parasite activity
Tested at: 10 µM
Time: 96 h
`CCN(CC)CC#CCOC(=O)C(O)(c1ccccc1)C1CCCCC1` (centres unmarked) — result for activity class: “inactive”.
`CC1(C)S[C@@H]2[C@H](NC(=O)[C@H](N)c3ccccc3)C(=O)N2[C@H]1C(=O)O` — result for activity class: “inactive”.
For `C[C@]12C=CC(=O)C=C1CC[C@@H]1[C@@H]2C(=O)C[C@@]2(C)[C@H]1CC[C@]2(O)C(=O)CO`, activity class read “inactive”.
For `CC(C)NCC(O)COc1cccc2[nH]ccc12` (centres unmarked), activity class read “inactive”.
For `NC[C@H]1CC[C@H](C(=O)Oc2ccc(CCC(=O)O)cc2)CC1`, activity class read “inactive”.

Study 5
Compound: O=C1NC(c2ccccn2)Sc2ccccc21 (centres unmarked)
Technique: competition with immobilised ligand
Tested at: 1 µM
It gave 99% for remaining binding (Serine/threonine-protein kinase MARK1 (MARK1, Homo sapiens, UniProt Q9P0L2); cell-free assay).
5'-AMP-activated protein kinase catalytic subunit alpha-1 (PRKAA1, Homo sapiens, UniProt Q13131); cell-free assay — remaining binding: 100%.
The remaining binding was 81% (NT-3 growth factor receptor (NTRK3, Homo sapiens, UniProt Q16288); cell-free assay).
The remaining binding was 74% (Phosphatidylinositol 4,5-bisphosphate 3-kinase catalytic subunit alpha isoform (PIK3CA, Homo sapiens, UniProt P42336, M1043I); cell-free assay).
The remaining binding was 92% (Serine/threonine-protein kinase MAK (MAK, Homo sapiens, UniProt P20794); cell-free assay).
The remaining binding was 88% (Mast/stem cell growth factor receptor Kit, autoinhibited (KIT, Homo sapiens, UniProt P10721); cell-free assay).
Dual specificity tyrosine-phosphorylation-regulated kinase 2 (DYRK2, Homo sapiens, UniProt Q92630); cell-free assay — remaining binding: 99%.
For Tyrosine-protein kinase ABL1, non-phosphorylated (ABL1, Homo sapiens, UniProt P00519, F317I); binding: remaining binding read 90%.
For Platelet-derived growth factor receptor alpha (PDGFRA, Homo sapiens, UniProt P16234); cell-free assay: remaining binding read 76%.
It gave 81% for remaining binding (Rhodopsin kinase GRK1 (GRK1, Homo sapiens, UniProt Q15835); cell-free assay).
Tyrosine-protein kinase Fgr (FGR, Homo sapiens, UniProt P09769); cell-free assay — remaining binding: 100%.
The remaining binding was 100% (TGF-beta receptor type-1 (TGFBR1, Homo sapiens, UniProt P36897); cell-free assay).
It gave 100% for remaining binding (Mitogen-activated protein kinase kinase kinase 12 (MAP3K12, Homo sapiens, UniProt Q12852); cell-free assay).
For Mitogen-activated protein kinase 8 (MAPK8, Homo sapiens, UniProt P45983); cell-free assay: remaining binding read 100%.
For Serine/threonine-protein kinase Nek2 (NEK2, Homo sapiens, UniProt P51955); cell-free assay: remaining binding read 100%.
